# Measured values gathered from unrelated publications.
# Each numbered part is a random draw from the data of one study; scales do not carry over between parts.
# UniProt Q02750, sequence (whole entry, looked up): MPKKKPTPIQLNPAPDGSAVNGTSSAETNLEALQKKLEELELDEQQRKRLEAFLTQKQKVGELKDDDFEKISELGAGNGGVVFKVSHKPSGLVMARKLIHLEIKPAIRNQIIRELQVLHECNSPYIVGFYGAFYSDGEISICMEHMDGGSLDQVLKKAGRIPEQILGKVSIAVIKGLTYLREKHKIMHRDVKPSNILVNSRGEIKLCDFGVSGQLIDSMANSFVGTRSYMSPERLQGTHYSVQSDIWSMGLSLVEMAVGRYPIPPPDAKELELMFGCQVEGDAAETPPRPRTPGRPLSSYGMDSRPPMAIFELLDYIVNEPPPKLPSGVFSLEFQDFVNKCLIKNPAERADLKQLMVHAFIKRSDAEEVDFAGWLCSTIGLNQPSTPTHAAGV
# UniProt Q8N568, sequence (whole entry, looked up): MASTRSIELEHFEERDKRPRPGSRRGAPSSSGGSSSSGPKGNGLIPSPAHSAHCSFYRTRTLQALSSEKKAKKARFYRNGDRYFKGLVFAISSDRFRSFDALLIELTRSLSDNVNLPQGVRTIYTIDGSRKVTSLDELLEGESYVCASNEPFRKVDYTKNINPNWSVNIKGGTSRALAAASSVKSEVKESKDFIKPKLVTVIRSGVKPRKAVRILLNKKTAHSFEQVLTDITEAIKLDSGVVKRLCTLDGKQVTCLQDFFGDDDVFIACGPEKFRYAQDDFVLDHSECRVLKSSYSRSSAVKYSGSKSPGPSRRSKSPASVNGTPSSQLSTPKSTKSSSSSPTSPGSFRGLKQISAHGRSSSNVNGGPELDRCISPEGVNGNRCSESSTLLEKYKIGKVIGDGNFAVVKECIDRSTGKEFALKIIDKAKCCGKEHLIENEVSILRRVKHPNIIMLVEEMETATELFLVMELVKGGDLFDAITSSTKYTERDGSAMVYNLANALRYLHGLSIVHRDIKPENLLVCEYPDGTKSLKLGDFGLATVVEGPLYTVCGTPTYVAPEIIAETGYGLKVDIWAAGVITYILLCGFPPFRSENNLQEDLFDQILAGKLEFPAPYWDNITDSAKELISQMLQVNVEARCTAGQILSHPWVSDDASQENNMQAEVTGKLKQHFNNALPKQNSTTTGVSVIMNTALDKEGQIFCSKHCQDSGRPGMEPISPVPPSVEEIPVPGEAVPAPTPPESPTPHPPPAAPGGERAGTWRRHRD
# UniProt O75914, sequence (whole entry, looked up): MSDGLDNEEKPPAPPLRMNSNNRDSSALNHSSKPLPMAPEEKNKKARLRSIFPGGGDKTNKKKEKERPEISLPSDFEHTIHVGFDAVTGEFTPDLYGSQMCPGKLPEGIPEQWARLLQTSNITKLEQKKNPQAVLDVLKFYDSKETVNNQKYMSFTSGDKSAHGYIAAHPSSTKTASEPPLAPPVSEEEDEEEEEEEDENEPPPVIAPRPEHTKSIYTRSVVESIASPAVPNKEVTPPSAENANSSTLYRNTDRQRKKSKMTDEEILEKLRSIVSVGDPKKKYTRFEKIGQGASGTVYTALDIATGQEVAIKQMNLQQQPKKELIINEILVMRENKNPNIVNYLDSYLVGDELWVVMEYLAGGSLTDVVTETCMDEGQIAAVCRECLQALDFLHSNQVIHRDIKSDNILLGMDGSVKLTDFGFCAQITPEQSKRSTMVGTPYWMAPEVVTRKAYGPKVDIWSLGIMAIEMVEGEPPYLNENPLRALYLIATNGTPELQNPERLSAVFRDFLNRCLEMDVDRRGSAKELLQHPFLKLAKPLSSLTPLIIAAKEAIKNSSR
# UniProt Q13237, sequence (whole entry, looked up): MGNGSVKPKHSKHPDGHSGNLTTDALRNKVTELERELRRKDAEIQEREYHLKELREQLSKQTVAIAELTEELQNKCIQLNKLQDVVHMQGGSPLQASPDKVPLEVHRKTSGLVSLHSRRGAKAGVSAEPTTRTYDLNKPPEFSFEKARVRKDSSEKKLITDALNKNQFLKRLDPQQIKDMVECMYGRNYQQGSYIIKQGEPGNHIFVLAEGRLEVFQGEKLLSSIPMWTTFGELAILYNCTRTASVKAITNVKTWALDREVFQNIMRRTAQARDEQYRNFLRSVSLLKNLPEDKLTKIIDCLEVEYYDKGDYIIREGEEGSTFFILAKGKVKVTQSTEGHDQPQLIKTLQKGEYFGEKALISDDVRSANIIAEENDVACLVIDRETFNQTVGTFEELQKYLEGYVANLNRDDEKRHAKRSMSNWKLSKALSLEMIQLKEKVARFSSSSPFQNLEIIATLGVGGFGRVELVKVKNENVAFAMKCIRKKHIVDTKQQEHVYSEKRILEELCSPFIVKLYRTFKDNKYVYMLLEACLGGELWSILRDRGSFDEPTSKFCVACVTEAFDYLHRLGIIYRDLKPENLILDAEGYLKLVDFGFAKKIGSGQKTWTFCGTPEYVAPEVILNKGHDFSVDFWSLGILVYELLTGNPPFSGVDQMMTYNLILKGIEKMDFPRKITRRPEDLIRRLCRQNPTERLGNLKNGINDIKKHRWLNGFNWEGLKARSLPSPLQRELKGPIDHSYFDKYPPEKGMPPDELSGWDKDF
# UniProt P28482, sequence (whole entry, looked up): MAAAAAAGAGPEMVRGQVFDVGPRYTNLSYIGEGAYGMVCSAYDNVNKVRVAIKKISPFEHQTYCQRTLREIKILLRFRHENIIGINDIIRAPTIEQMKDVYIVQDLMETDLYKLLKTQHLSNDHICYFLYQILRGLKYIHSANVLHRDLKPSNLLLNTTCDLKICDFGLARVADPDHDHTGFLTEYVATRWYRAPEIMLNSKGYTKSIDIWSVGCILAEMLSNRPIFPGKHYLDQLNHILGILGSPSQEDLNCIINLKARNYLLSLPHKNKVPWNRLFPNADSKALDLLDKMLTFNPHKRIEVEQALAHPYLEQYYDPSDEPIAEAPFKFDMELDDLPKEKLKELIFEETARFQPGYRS
# UniProt P42681, sequence (whole entry, looked up): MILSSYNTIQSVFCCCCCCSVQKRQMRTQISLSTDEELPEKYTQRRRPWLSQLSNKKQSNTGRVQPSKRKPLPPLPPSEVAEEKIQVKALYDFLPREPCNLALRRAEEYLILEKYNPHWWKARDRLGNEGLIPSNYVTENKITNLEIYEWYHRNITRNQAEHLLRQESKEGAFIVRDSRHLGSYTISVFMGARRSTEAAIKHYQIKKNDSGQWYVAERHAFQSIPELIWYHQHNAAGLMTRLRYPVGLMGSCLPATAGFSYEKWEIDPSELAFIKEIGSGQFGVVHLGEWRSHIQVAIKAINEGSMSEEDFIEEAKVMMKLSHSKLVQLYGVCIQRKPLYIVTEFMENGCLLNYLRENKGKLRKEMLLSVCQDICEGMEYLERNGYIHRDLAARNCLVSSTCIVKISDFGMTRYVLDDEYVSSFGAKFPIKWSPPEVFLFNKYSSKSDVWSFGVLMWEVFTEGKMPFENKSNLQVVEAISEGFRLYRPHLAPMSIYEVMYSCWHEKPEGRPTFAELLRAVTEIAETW
# UniProt Q96L34, sequence (whole entry, looked up): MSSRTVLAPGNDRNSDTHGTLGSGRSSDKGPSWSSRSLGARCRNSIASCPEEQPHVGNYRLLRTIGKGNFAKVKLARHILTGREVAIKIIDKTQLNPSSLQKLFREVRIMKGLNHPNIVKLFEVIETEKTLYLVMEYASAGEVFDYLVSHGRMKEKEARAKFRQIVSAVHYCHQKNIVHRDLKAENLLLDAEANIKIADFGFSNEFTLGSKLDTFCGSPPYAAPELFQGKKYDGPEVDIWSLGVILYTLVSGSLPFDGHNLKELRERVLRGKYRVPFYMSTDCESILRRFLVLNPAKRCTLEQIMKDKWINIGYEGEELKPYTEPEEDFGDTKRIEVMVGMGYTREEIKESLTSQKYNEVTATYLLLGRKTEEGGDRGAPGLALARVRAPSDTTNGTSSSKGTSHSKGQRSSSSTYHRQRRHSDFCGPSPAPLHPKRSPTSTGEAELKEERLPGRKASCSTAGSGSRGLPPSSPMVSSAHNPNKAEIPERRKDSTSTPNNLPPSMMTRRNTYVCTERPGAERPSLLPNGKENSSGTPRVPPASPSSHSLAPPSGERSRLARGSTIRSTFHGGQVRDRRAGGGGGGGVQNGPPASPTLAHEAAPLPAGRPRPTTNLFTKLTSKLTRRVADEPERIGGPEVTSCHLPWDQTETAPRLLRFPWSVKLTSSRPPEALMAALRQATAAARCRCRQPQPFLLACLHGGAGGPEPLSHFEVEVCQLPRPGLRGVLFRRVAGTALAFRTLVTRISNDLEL

# Series 1 — sample: plasma; route: oral
# SMILES: COc1ccc(-c2c(Nc3ccccn3)[nH]c3c(C4=CCCCC4)c(-c4ccccc4)nn3c2=O)cc1
technique,species,dose,time,notes,"plasma concentration, mean [ng/mL]"
,cancer patients,50 mg,2 h post-dose,single dose,360
,cancer patients,400 mg,24 h post-dose,single dose,779
,cancer patients,400 mg,1 h post-dose,single dose,406
LC-MS/MS,human,50 mg once daily,6 h,cycle 1,1610
,human patients,150 mg once daily,0 h,cycle 1,4630
,human patients,400 mg once daily,8 h,cycle 1,3930
,cancer patients,200 mg,0.5 h post-dose,single dose,135

# Series 2 — read-out: RNA clamping; technique: fluorescence polarization; concentration: concentration not given; with: FAM-labelled poly r(AG)8 RNA; reading: higher = more clamping
# Target: Eukaryotic initiation factor 4A-I (EIF4A1, Homo sapiens, UniProt P60842)
# UniProt P60842, sequence (whole entry, looked up): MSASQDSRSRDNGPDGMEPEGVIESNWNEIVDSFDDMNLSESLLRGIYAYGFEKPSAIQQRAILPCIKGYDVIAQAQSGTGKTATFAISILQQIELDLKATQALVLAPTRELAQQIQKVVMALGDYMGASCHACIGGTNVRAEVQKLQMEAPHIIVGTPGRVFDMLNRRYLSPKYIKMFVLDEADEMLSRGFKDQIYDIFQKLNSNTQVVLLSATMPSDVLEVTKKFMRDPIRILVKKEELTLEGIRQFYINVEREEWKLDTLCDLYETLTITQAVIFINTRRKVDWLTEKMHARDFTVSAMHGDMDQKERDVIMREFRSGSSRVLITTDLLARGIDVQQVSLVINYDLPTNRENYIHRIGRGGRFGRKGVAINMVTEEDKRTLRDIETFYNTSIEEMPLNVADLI
SMILES,fluorescence polarization change [mP]
COc1cc(OC)c2c(c1)N(C)[C@]1(c3ccc(Br)cc3)C(=O)[C@@]2(O)[C@H](c2ccccc2)[C@H]1c1ccccc1,3.7
COc1ccc([C@@]23Oc4cc(OC)cc(OC)c4[C@]2(O)[C@H](O)[C@H](C(=O)c2ccccc2OC)[C@H]3c2ccccc2)cc1,3.4
COc1ccc([C@@]23Oc4cc(OC)cc(OC)c4[C@]2(O)[C@H](O)[C@H](C(=O)c2ccc(C)o2)[C@H]3c2ccccc2)cc1,15.7
COc1ccc([C@@]23Oc4cc(OC)cc(OC)c4[C@]2(O)c2nc(-c4cccc(OCc5ccccc5)c4)[nH]c(=O)c2[C@H]3c2ccccc2)cc1,18.2
COc1cc(OC)c2c(c1)O[C@@]1(c3ccc(Br)cc3)[C@H](c3ccccc3)C3=C(N[C@H]4CCCN4C3=O)[C@@]21O,35.1
COC(=O)[C@H]1C(=O)[C@@]2(NCCN(C)C)c3c(OC)cc(OC)cc3O[C@@]2(c2ccc(OC)cc2)[C@@H]1c1ccccc1,-3.2

# Series 3 — read-out: enzyme activity; action: inhibitor; concentration: 0.5 µM; relative to: control
# SMILES: NC(=O)c1cccc(-c2cc(Nc3ccc(OC(F)(F)F)cc3)ncn2)c1
target,remaining activity [%]
"RAC-beta serine/threonine-protein kinase (AKT2, Homo sapiens, UniProt P31751)",105
"Calcium/calmodulin-dependent protein kinase type 1B (PNCK, Homo sapiens, UniProt Q6P2M8)",109
"Rho-associated protein kinase 1 (ROCK1, Homo sapiens, UniProt Q13464)",96.8
"Discoidin domain-containing receptor 2 (DDR2, Homo sapiens, UniProt Q16832)",108
"Cyclin-dependent kinase 1, with cyclin A (CDK1, Homo sapiens, UniProt P06493)",103
"Dual specificity protein kinase CLK3 (CLK3, Homo sapiens, UniProt P49761)",104
"Serine/threonine-protein kinase DCLK2 (DCLK2, Homo sapiens, UniProt Q8N568)",104
"Serine/threonine-protein kinase PAK 3 (PAK3, Homo sapiens, UniProt O75914)",100
"Ribosomal protein S6 kinase alpha-4 (RPS6KA4, Homo sapiens, UniProt O75676)",85.8
"G protein-coupled receptor kinase 4 (GRK4, Homo sapiens, UniProt P32298)",94.8
"Serine/threonine-protein kinase PLK3 (PLK3, Homo sapiens, UniProt Q9H4B4)",96.9
"cGMP-dependent protein kinase 2 (PRKG2, Homo sapiens, UniProt Q13237)",96.4
"Serine/threonine-protein kinase Nek3 (NEK3, Homo sapiens, UniProt P51956)",121
"MAP/microtubule affinity-regulating kinase 4 (MARK4, Homo sapiens, UniProt Q96L34)",98.1
"Vascular endothelial growth factor receptor 2 (KDR, Homo sapiens, UniProt P35968)",99.8
"Cyclin-dependent kinase 9, with cyclin K (CDK9, Homo sapiens, UniProt P50750)",106
"Mitogen-activated protein kinase 14 (MAPK14, Homo sapiens, UniProt Q16539)",92
"Serine/threonine-protein kinase MARK2 (MARK2, Homo sapiens, UniProt Q7KZI7)",90.8
"Tyrosine-protein kinase TXK (TXK, Homo sapiens, UniProt P42681)",111
"Dual specificity mitogen-activated protein kinase kinase 1 (MAP2K1, Homo sapiens, UniProt Q02750)",95.5
"Dual specificity protein kinase CLK4 (CLK4, Homo sapiens, UniProt Q9HAZ1)",97.8
"Mitogen-activated protein kinase 11 (MAPK11, Homo sapiens, UniProt Q15759)",105
"Hepatocyte growth factor receptor (MET, Homo sapiens, UniProt P08581)",135
"Mitogen-activated protein kinase 1 (MAPK1, Homo sapiens, UniProt P28482)",96.6
"Calcium/calmodulin-dependent protein kinase type IV (CAMK4, Homo sapiens, UniProt Q16566)",90.5

# Series 4 — read-out: binding; technique: radioligand binding; concentration: 10 µM
# Target: D(4) dopamine receptor (DRD4, Homo sapiens, UniProt P21917)
# UniProt P21917, sequence (whole entry, looked up): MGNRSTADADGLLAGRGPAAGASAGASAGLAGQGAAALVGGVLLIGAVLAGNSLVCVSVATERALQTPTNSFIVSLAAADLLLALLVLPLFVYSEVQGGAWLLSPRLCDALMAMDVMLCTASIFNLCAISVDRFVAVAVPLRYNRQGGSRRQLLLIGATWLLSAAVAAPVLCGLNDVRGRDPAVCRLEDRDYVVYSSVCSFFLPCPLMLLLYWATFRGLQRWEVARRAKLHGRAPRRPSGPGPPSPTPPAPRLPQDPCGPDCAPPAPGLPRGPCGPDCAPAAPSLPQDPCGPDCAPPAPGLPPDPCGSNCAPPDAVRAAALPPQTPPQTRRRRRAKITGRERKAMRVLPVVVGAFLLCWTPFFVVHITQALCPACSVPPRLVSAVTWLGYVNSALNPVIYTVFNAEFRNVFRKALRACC
SMILES,inhibition [%]
Cc1c(NC(=O)c2cc(C(N)=O)nc3cc(F)ccc23)c(C(F)(F)F)nn1Cc1ccc(C(C)(C)C)cc1,4.93
C[C@@H]1CN(c2cc(-c3nn(C)c4ccc(OC5(C)CC5)cc34)ncn2)C[C@H](C)O1,-2.65
C[C@@]1(Cc2ccc(C#N)cc2)C(=O)N(c2cc(Cl)cc(Cl)c2)c2ncc(C(=O)NC3(c4nc(C5CCC5)no4)CC3)n21,13.6
CCOC(=O)c1cc2cc(-c3cc(C(=O)NCc4ccc(C(=O)O)cc4)nn3C)ccc2[nH]1,-19.3
CC(=O)N1CCC(c2ccc(C(=O)NC(=N)N)cc2C(F)(F)F)CC1,-5.7
O=C1CCc2cc(Nc3cc(OC4CCOCC4)c([N+](=O)[O-])cc3Cl)ccc2N1,-2.6
Cc1nc(C2CCN(C(=O)c3ccc(OC(F)(F)F)cc3N)CC2)c2ncc(N3CCN(C)CC3)cc2n1,1.98
COCc1nc2cnc3cc(-c4c(C)noc4C)c(OC[C@H]4CCNC4)cc3c2n1[C@H](C)c1ccccc1,79.5
COc1nc2ccc([C@@](O)(c3ccccc3)C3CCN(C(C)=O)CC3)cc2c(Cl)c1Cc1ccc(-n2cccn2)cc1,-5.45
COc1cc(-c2cn(C3CCc4ccccc4N(CC(F)(F)F)C3=O)nn2)ccc1-n1ccc(C)n1 (stereo not shown),52.4

# Series 5 — organism: Plasmodium berghei; action: inhibitor; cell line: Huh-7; strain: GFP-expressing sporozoites, liver stage; concentration: 10 µM; time: 24 h; relative to: untreated control
SMILES,infection rate [%]
CC1(C)S[C@@H]2[C@H](NC(=O)[C@H](N)c3ccc(O)cc3)C(=O)N2[C@H]1C(=O)O,97.6
CC(=O)Oc1ccc(C(c2ccc(OC(C)=O)cc2)c2ccccn2)cc1,97.1
C[C@]12CCC(=O)C=C1C=C[C@@H]1[C@@H]2CC[C@@]2(C)[C@H]1CC[C@@]21CCC(=O)O1,58.1
O=C(O)Cc1ccccc1Nc1c(Cl)cccc1Cl,109
CN(C)CCOC(c1ccc(Cl)cc1)c1ccccn1 (stereo not shown),129
CN(C)CC/C=C1/c2ccccc2Sc2ccc(Cl)cc21,63.2
C[C@]12CC[C@@H]3c4ccc(O)cc4CC[C@H]3[C@@H]1CCC2=O,111
